Published values collected from several papers.
Values joined by “and” are separate records of one study, mostly repeats; a detail may differ. ± marks the error that the study gave.
rep main protease: Replicase polyprotein 1ab, main protease (rep, Severe acute respiratory syndrome coronavirus 2, UniProt P0DTD1)
rep nsp14 methyltransferase: Replicase polyprotein 1ab, nsp14 methyltransferase (rep, Severe acute respiratory syndrome coronavirus 2, UniProt P0DTD1)
rep papain-like protease: Replicase polyprotein 1ab, papain-like protease (rep, Severe acute respiratory syndrome coronavirus 2, UniProt P0DTD1)
rep nsp3 macrodomain: Replicase polyprotein 1ab, nsp3 macrodomain (rep, Severe acute respiratory syndrome coronavirus 2, UniProt P0DTD1)

O=C(Oc1cncc(Cl)c1)c1ccc2[nH]ccc2c1 — kinact/Ki (rep main protease; inhibitor, biochemical): 3210 M⁻¹ s⁻¹
CC1CC(c2ccc(C(=O)O)s2)=NN1c1ccc(C#N)c(Cl)c1 (centres unmarked) — lipophilic ligand efficiency (rep nsp14 methyltransferase): 2.9
O=c1oc2cc(O)ccc2c2cc(O)c(O)cc12 — binding efficiency index (rep main protease): 21.2
NC(Cc1cc(O)c(O)cc1O)C(=O)O (racemic) — Hill slope (Replicase polyprotein 1ab, nsp14 N7-methyltransferase (rep, Severe acute respiratory syndrome coronavirus 2, UniProt P0DTD1); N7-methyltransferase activity, inhibitor, Py-FLINT): 0.74 ± 0.1
CC(=O)N[C@@H](Cc1ccc(O)cc1)C(=O)N[C@@H](CC(=O)O)C(=O)NCCC(=O)N[C@@H](Cc1ccccc1)C(=O)N[C@@H](Cc1ccc(O)cc1)C(=O)NCCC(=O)N[C@@H](Cc1ccc(O)cc1)C(=O)N[C@H](C(=O)N[C@H](C(=O)N[C@@H](Cc1ccccc1)C(=O)N[C@@H](Cc1c[nH]cn1)C(=O)N[C@H](C(=O)N[C@@H](C)C(=O)N[C@H](C(N)=O)[C@@H](C)O)C(C)C)[C@@H](C)O)C(C)C — kon (rep main protease; binding, SPR; pH 7.6): 2.31e+07 M⁻¹ s⁻¹
O=C1c2ccccc2C(=O)c2oc(-c3ccccc3)nc21 — ΔTm (rep papain-like protease; binding, differential scanning fluorimetry; higher = stronger stabilisation): -8.72 °C
O=c1c2cccc([N+](=O)[O-])c2[se]n1Cc1ccccc1 — melting temperature (rep main protease; thermal shift; SARS-CoV-2; main protease): 49 °C
CNC(=O)CC1CN(C(=O)c2ccc(C(F)(F)F)cn2)CCN1C(=O)c1cccnn1 (centres unmarked) — remaining activity (rep main protease; 3CL protease activity; 0.04576 µM): 98.4%
Cc1ccc(OCCN(C)C)cc1C(=O)N[C@H](C)c1cc(-c2cnn(C3CNC3)c2)nc2ccccc12 — GFP/mCherry signal ratio (rep papain-like protease; reporter gene, cell-based): 104 and 102 and 88.7 and 113 and 93.4 and 110
C=C[C@@H]1C[C@]1(NC(=O)[C@@H]1C[C@@H](Oc2ncc(OC)c3ccc(Cl)cc23)CN1C(=O)[C@@H](NC(=O)OC(C)(C)C)C(C)(C)C)C(=O)NS(=O)(=O)C1CC1 — remaining activity (rep papain-like protease; protease activity, inhibitor, fluorescence; 20 µM, 25 °C): no inhibition
O=C(OCC(=O)c1ccc([N+](=O)[O-])cc1)/C(=C/c1ccc(Cl)cc1)NC(=O)c1ccccc1 — Vmax (rep main protease; enzyme activity, inhibitor; 0.75 µM): 28 ± 1.7 RFU/s
CNC(=O)CC[C@H](Cc1ccccc1)NC(=O)[C@@H](Cc1ccc(Cl)cc1Cl)NC(=O)[C@H](N)Cc1ccccc1[N+](=O)[O-] — remaining activity (rep main protease; 0.5229 µM): 101%
CCOC(=O)[C@@H](NC(=O)c1ccccc1[Se][Se]c1ccccc1C(=O)N[C@H](C(=O)OCC)C(C)C)C(C)C — inhibition (rep main protease; enzyme activity, inhibitor; 40 µM, mean of repeats): 87.6%
CCCCCCCCCCCCCCCC[N+](C)(C)CCN(Cc1ccc(OC)cc1)c1ncccn1 — Stern-Volmer constant KSV (rep main protease; fluorescence quenching; together with: 3CLpro 3 µM): 39600 L/mol
CC[C@H](NC(=O)OCc1ccccc1)C(=O)N[C@H](C(=O)N[C@@H](Cc1ccccc1)C(=O)N(C)N(C#N)Cc1ccccc1)C(C)(C)C — kinact/KI (rep main protease; enzyme activity, irreversible inhibitor; SARS-CoV-2; 37 °C, main protease): 128000 M⁻¹ s⁻¹
CCOC(=O)CC[C@H](NC(=O)c1ccccc1[Se][Se]c1ccccc1C(=O)N[C@@H](CCC(=O)OCC)C(=O)OCC)C(=O)OCC — inhibition (rep main protease; enzyme activity, inhibitor; 40 µM): 64.6% and 69.2%
Cc1cc(C(=O)O)ccc1C1=NN(c2ccc(C#N)c(Cl)c2)C(C)C1 (centres unmarked) — lipophilic ligand efficiency (rep nsp14 methyltransferase): 2.3
CC(=O)Nc1ccc(S(=O)(=O)NNc2ncnc3sccc23)cc1 — ADP-ribosylhydrolase inhibition (rep nsp3 macrodomain; enzyme activity, inhibitor, ADPr-Glo; concentration not given, SARS-CoV-2): inhibited
CC[C@@H](C)[C@@H](C(=O)OC)n1[se]c2ccccc2c1=O — inhibition (rep main protease; enzyme activity, inhibitor; 40 µM, mean of repeats): 102%
NC(=O)CCC1CCCN(C(=O)c2c[nH]n3c2nc(=O)c2ccccc23)C1 (centres unmarked) — Hill slope (rep main protease; protease activity, SAMDI-MS): 1.31
O=C(Oc1cncc(Cl)c1)c1cccs1 — Hill slope (rep main protease; enzyme activity, inhibitor): 0.87 ± 0.02
Cc1ccc(O[C@H]2CCN(C)C2)cc1C(=O)N[C@H](C)c1cc(-c2cnn(C)c2)nc2ccccc12 — GFP/mCherry signal ratio (rep papain-like protease; reporter gene, cell-based): 71 and 62.8 and 51 and 64.1 and 16.4
N#Cc1cn([C@@H]2O[C@H](CSCC[C@H](N)C(=O)O)[C@@H](O)[C@H]2O)c2ncnc(N)c12 — Hill slope (Replicase polyprotein 1ab, nsp16 with nsp10 (rep, Severe acute respiratory syndrome coronavirus 2, UniProt P0DTD1); nsp10-nsp16 methyltransferase activity, radiometric): 0.9 ± 0.4
O=C(NCCc1cccc(F)c1)[C@@H](c1cncnc1)N(C(=O)[C@@H](F)Cl)c1ccc(S(F)(F)(F)(F)F)cc1 — kinact/KI (rep main protease; enzyme activity, inhibitor): 20 M⁻¹ s⁻¹
CCOc1ccc(CN2CC[C@H]2C(=O)NC)cc1-c1cccc(C(=O)NC[C@@H]2COC(C)(C)O2)c1 — remaining activity (rep main protease; 3CL protease activity; 0.04576 µM): 103%
CC(C)[C@@H]1CC[C@@H](C)C[C@H]1n1[se]c2ccccc2c1=O — inhibition (rep main protease; enzyme activity, inhibitor; 40 µM, mean of repeats): 102%
C[C@](C(=O)NC1CCOCC1)(c1cncnc1)N(C(=O)[C@H](F)Cl)c1ccc(OC(F)(F)Cl)cc1 — inhibition (rep main protease; enzyme activity, inhibitor; 41 nM): 89.3%
Cc1ccc(OCCN(C)C)cc1C(=O)N[C@H](C)c1cc(-c2cncs2)nc2ccccc12 — GFP/mCherry signal ratio (rep papain-like protease; reporter gene, cell-based): 30.8 and 29.6 and 81 and 69.2 and 71.2 and 54.3
N#C[C@@]1(c2ccc3c(N)ncnn23)O[C@H](CCl)[C@@H](O)[C@H]1O — initial substrate decay rate (rep nsp3 macrodomain; substrate): 0.093 µM/min and 0.17 µM/min
COc1cc2c(cc1OC)-c1c(OC)c(OC)cc3c1[C@H](C2)N(C)CC3 — relative STD saturation (rep main protease; STD NMR, item: proton H-13; reference: H-8 signal): 61.5%
O=C(c1ccc(Br)cc1)N1CCC(c2ccn3ncc(C(=O)N4CCCCC4)c3c2)CC1 — ADP-ribosylhydrolase inhibition (rep nsp3 macrodomain; enzyme activity, inhibitor, ADPr-Glo; concentration not given, SARS-CoV-2): inhibited
CNC(=O)C[C@H](Cc1ccncc1)NC(=O)[C@@H](Cc1cccc(Br)c1)NC(=O)[C@@H](N)Cc1ccsc1 — remaining activity (rep main protease; 3CL protease activity; 0.04576 µM): 74.7%
C[C@](C(=O)NC1CCC(F)(F)CC1)(c1cncnc1)N(C(=O)[C@H](F)Cl)c1ccc(OC(F)(F)F)cc1 — inhibition (rep main protease; enzyme activity, inhibitor; 0.103 µM): 85.5%
CNC(=O)C[C@H](Cc1ccncc1)NC(=O)[C@@H](Cc1cccc(Br)c1)NC(=O)[C@@H](N)Cc1cccc(F)c1 — remaining activity (rep main protease; 3CL protease activity; 0.04576 µM): 85.2%
CCc1ccccc1NC(=S)N/N=C/c1ccc(O)cc1O — melting temperature (rep main protease; thermal shift; 20 µM, 2 h): 56.1 °C
COc1cc(C(=O)N(CCC(=O)N2CCNCC2)Cc2cccc(Cl)c2)cc(OC)c1OC — ADP-ribosylhydrolase inhibition (rep nsp3 macrodomain; enzyme activity, inhibitor, ADPr-Glo; concentration not given, SARS-CoV-2): inhibited
CC(=O)N[C@@H](Cc1ccc(O)cc1)C(=O)N[C@@H](CC(=O)O)C(=O)N[C@H]1CCC[C@@H]1C(=O)N[C@@H](Cc1ccccc1)C(=O)N[C@@H](Cc1ccc(O)cc1)C(=O)N[C@H]1CCC[C@@H]1C(=O)N[C@@H](Cc1ccc(O)cc1)C(=O)N[C@H](C(=O)N[C@H](C(=O)N[C@@H](Cc1ccccc1)C(=O)N[C@@H](Cc1c[nH]cn1)C(=O)N[C@H](C(=O)N[C@@H](C)C(=O)N[C@H](C(N)=O)[C@@H](C)O)C(C)C)[C@@H](C)O)C(C)C — koff (rep main protease; binding, SPR): 0.00373 s⁻¹
CC(C)C[C@@H]1NC(=O)[C@H](C(C)C)NC(=O)[C@H](C)NC(=O)[C@H](Cc2ccc(O)cc2)NC(=O)[C@H](CCC(N)=O)NC(=O)[C@H](CC(C)C)NC(=O)[C@@H](Cc2ccc(O)cc2)NC(=O)CSC[C@@H](C(N)=O)NC(=O)[C@H](CCC(=O)O)NC(=O)[C@H](CCCNC(=N)N)NC(=O)[C@H](CCCNC(=N)N)NC(=O)[C@H](CCCCN)NC(=O)[C@H](Cc2c[nH]cn2)NC(=O)[C@H](CCCNC(=N)N)NC1=O — activity (rep papain-like protease; SARS-CoV-2; 10 µM): inactive

Repeated from above:
COc1cc(C(=O)N(CCC(=O)N2CCNCC2)Cc2cccc(Cl)c2)cc(OC)c1OC — ADP-ribosylhydrolase inhibition (rep nsp3 macrodomain; enzyme activity, inhibitor, ADPr-Glo; concentration not given, SARS-CoV-2): inhibited
O=C1c2ccccc2C(=O)c2oc(-c3ccccc3)nc21 — ΔTm (rep papain-like protease; binding, differential scanning fluorimetry; higher = stronger stabilisation): -8.72 °C
CNC(=O)C[C@H](Cc1ccncc1)NC(=O)[C@@H](Cc1cccc(Br)c1)NC(=O)[C@@H](N)Cc1cccc(F)c1 — remaining activity (rep main protease; 3CL protease activity; 0.04576 µM): 85.2%
O=C(c1ccc(Br)cc1)N1CCC(c2ccn3ncc(C(=O)N4CCCCC4)c3c2)CC1 — ADP-ribosylhydrolase inhibition (rep nsp3 macrodomain; enzyme activity, inhibitor, ADPr-Glo; concentration not given, SARS-CoV-2): inhibited
CNC(=O)CC1CN(C(=O)c2ccc(C(F)(F)F)cn2)CCN1C(=O)c1cccnn1 (centres unmarked) — remaining activity (rep main protease; 3CL protease activity; 0.04576 µM): 98.4%
O=c1c2cccc([N+](=O)[O-])c2[se]n1Cc1ccccc1 — melting temperature (rep main protease; thermal shift; SARS-CoV-2; main protease): 49 °C
